Assay results gathered from unrelated publications.
Cell line: THP-1

SMILES	test	test system	conditions	scale	endpoint	result
CC(C)C[C@@H]1NC(=O)[C@H](CC(C)C)NC(=O)[C@H](Cc2ccccc2)NC(=O)[C@@H]2CSSC[C@@H](C(=O)O)NC(=O)[C@H](CSSC[C@H](N)C(=O)N3CCC[C@H]3C(=O)N2)NC(=O)CNC1=O	cell adhesion	–	60 min, added: LLG-C4-GST substratum	–	IC50	20 µM
CCOC(=O)c1c(C(=O)OC)cn(CC(c2cn(C)c3ccccc23)c2cn(C)c3ccccc23)c1C	cell growth or viability, MTS	–	200 µM, 72 h	–	inhibition	2%
COc1cc(/C=N/N2C(=O)c3ccccc3NC2c2cc(OC)c(O)c([N+](=O)[O-])c2)cc([N+](=O)[O-])c1O (stereo not shown)	cell growth or viability, CCK-8	–	24 h	–	IC50	> 50 µM
CC1CC(=O)N(CCCCCN)N=C1c1ccc(NC(=O)N2Cc3ccncc3C2)cc1 (stereo not shown)	cell growth or viability, ATP luminescence	–	–	–	IC50	2.3e-05 µM
COc1cc(/C=N/N2C(=O)c3ccccc3NC2c2cc(OC)c(O)c(OC)c2)cc(OC)c1O (stereo not shown)	cell growth or viability, CCK-8	–	24 h	–	IC50	> 50 µM
C(=C/c1ccccc1)/c1ccccc1	apoptosis, Hoechst nuclear staining	–	24 h, 50% apoptosis induction	–	EC50	> 500 µM
Nc1nc2c(ncn2[C@@H]2O[C@@H]3COP(=O)(O)O[C@H]4[C@@H](F)[C@H](n5cnc6c(N)ncnc65)O[C@@H]4CSP(=O)(O)O[C@@H]2[C@@H]3O)c(=O)[nH]1	item: CXCL10	–	10 µM, 24 h	reference: untreated	mRNA level	~100 fold
CC(C)C[C@H](NC(=O)[C@H](CO)NC(=O)[C@H](CCCNC(=N)N)NC(=O)[C@H](CCCCN)NC(=O)[C@@H](NC(=O)[C@@H](NC(=O)CNC(=O)[C@H](CCCNC(=N)N)NC(=O)[C@H](Cc1c[nH]cn1)NC(=O)[C@H](Cc1c[nH]c2ccccc12)NC(=O)[C@H](Cc1ccccc1)NC(=O)[C@H](Cc1c[nH]cn1)NC(=O)[C@H](Cc1ccc(O)cc1)NC(=O)[C@@H](N)Cc1ccc(O)cc1)C(C)C)[C@@H](C)O)C(=O)N[C@@H](CO)C(=O)N1CCC[C@H]1C(=O)N[C@@H](Cc1c[nH]cn1)C(=O)N[C@@H](CCCNC(=N)N)C(=O)N1CCC[C@H]1C(=O)N[C@@H](CCCNC(=N)N)C(=O)N[C@@H](Cc1c[nH]cn1)C(=O)N[C@@H](CO)C(=O)N[C@@H](CCCNC(=N)N)C(=O)O	TNF-α secretion, ELISA	–	30 µM, 4 to 12 h, added: LPS	–	inhibition	50%
C[C@@H]1CC(=O)N(C2CCOCC2)N=C1c1ccc(NC(=O)N2Cc3ccncc3C2)cc1	cell growth or viability, ATP luminescence	–	–	–	IC50	0.00034 µM
O=C1c2ccccc2NC(c2ccc(Cl)c([N+](=O)[O-])c2)N1/N=C/c1ccc(Cl)c([N+](=O)[O-])c1 (stereo not shown)	cell growth or viability, CCK-8	–	24 h	–	IC50	> 50 µM
CC1CC(=O)NN=C1c1ccc(NC(=O)N2Cc3ccncc3C2)cc1 (stereo not shown)	cell growth or viability, ATP luminescence	–	–	–	IC50	0.00047 µM
CCOC(=O)C1=C(C)NC(=O)N[C@@H]1/C=C/c1ccc(OC)cc1	cell growth or viability, MTT	–	24 h	–	IC50	13.1 µM
COc1cc(/C=N/N2C(=O)c3ccccc3NC2c2ccc(O)c(OC)c2)ccc1O (stereo not shown)	cell growth or viability, CCK-8	–	24 h	–	IC50	> 50 µM
COc1cc(O)cc(O)c1C(=O)/C=C/c1ccccc1	antioxidant effect, OPT fluorometric glutathione, item: redox index GSH/total glutathione	cell extract	–	–	EC50	5.39 µM
O=C1c2ccccc2NC(c2ccc([N+](=O)[O-])cc2)N1/N=C/c1ccc([N+](=O)[O-])cc1 (stereo not shown)	cell growth or viability, CCK-8	–	24 h	–	IC50	> 50 µM
COc1ccc(-c2cc(=O)c3c(O)c(OC)c(O)c(OC)c3o2)cc1O	antioxidant effect, OPT fluorometric glutathione, item: redox index GSH/total glutathione	cell extract	–	–	EC50	4.58 µM

For quick reference, copied from above:
SMILES	test	test system	conditions	scale	endpoint	result
COc1cc(/C=N/N2C(=O)c3ccccc3NC2c2ccc(O)c(OC)c2)ccc1O (stereo not shown)	cell growth or viability, CCK-8	–	24 h	–	IC50	> 50 µM
COc1cc(O)cc(O)c1C(=O)/C=C/c1ccccc1	antioxidant effect, OPT fluorometric glutathione, item: redox index GSH/total glutathione	cell extract	–	–	EC50	5.39 µM
